Results gathered from unrelated publications.
Parts stem from different laboratories: compare values within a part only.

Sample 1 — method: RNA Bind-n-Seq; form: RNA; sample: in vitro; concentration: 365 nM; reference: no-protein control; reading: higher = stronger binding; quantity: RBNS enrichment (R)
Target: RNA binding protein fox-1 homolog 2, RRM domain, GST-SBP tag (RBFOX2, Homo sapiens, UniProt O43251-10, residues 100-194)
Setting: natural RNA segment, single round, ends assumed
Construct (chain): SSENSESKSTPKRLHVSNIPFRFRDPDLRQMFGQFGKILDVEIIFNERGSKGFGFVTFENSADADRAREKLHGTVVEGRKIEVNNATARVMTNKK
Sequence = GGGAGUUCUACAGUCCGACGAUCCAACUGGACGGGCUACUCACAAAAGGUGUUACCCACUUCGUUAUAUAUACUUUCUGUUAUUCCAAAAUGUCAUCAUUAGGGAAGCCACUAAGAGUUUGGAAAUAGGGGCUUGGAAUUCUCGGGUGCCAA; value = 0.29
Sequence = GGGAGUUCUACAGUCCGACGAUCAAGACCUGUCUUCUGUGAGCUGUGCUCAUGUGCAGUGGAGCAGACCUGCUUCCGCCUGGAGGAGAGCUGGGCAUCCAUGUUAGCCACAGUUCCUCAUCCACAGUGCUCCCUGGAAUUCUCGGGUGCCAA; value = 0.282
Sequence = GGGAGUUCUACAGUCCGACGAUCGGUUAGCACUUAAUAUGUAGAAGCUUGGGCUUGAAGGUGAUGUCCACCUUAAUCAGCAUCACUUGCAGAGACUGACCCUAAACAACACAGCAGGGGCAGGGAACGGGUAGUGGAAUUCUCGGGUGCCAA; value = 1.13
Sequence = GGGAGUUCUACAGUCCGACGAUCUCUUUUGAGGUAAGCUCUGAUUUAGCAUUUAUUCUGAUAAAAUCUAAUACAUCAUGGGAUAUAUAUAAAGCAACUUAAUUCUUGUGGUGUAGUCUUAAUAGUUUUGAAUGUGGAAUUCUCGGGUGCCAA; value = 0.517
Sequence = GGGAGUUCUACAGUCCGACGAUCAACAACAAUCAUGAUAAUUAAAUUAAAACACUAGUUUGUUCACUUGUAGGACUGCAGUUCUGAAUUUUGGGUUAAAGGUUUUGGCUGCUGUAAGAAUGUGAAUUUGAAUGUGGAAUUCUCGGGUGCCAA; value = 2.56
Sequence = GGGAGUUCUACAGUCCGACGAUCUAGUUGAUCACUCUGAGGAGGUGGGUAGCAAGAUGAAUUAGGAGGUCAAGGUCACUGAGAGGAAUUUGUUUAGAUGCCCAGUUUAGAGUGAAUAGAUAUCUGCGGGGAACUGGAAUUCUCGGGUGCCAA; value = 0.636
Sequence = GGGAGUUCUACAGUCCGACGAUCGAAGCCACCCAUGGGGACUGGGGACCAGGGGCCUUCAGCAUGGCUUCUAGGUUCCCUCCUCCCCCUACCCCAUCUCCUACCUCCACAGUACAGACUGUCCCCAACUUAACUGGAAUUCUCGGGUGCCAA; value = 0.577
Sequence = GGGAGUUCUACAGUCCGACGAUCCUUCACUGGUUUAUCUGCAGAAAUUUCUCUGGGCUUUUUUCGGUGUUAGAUUCAACACUGCGCUAAAGCGGGGAUGUUCCAUUGAAUAAAAGAGCAGUGUGGUUUUCUGGUGGAAUUCUCGGGUGCCAA; value = 0.366

Sample 2 — method: RNA Bind-n-Seq; form: RNA; sample: in vitro; concentration: 200 nM; setting: whole 134-nt RNA, ends assumed; with: 150 mM KCl; reference: input library; reading: higher = stronger binding; quantity: log2 enrichment
Target: Ras GTPase-activating protein-binding protein 1, full length (G3BP1, Homo sapiens, UniProt Q13283)
Sequence of UniProt Q13283 (whole entry, looked up): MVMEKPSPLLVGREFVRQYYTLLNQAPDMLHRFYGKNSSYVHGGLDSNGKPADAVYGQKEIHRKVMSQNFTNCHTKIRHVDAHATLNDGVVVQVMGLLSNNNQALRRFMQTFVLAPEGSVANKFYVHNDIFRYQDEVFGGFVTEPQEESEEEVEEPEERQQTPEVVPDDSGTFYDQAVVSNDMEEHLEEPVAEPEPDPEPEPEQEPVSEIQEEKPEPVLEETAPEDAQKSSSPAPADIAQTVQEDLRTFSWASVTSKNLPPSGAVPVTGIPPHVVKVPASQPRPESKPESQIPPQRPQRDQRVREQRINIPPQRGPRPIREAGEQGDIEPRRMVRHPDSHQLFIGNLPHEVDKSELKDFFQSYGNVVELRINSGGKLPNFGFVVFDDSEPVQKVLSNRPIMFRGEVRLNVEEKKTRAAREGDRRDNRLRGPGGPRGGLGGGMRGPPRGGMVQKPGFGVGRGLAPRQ
Sequence = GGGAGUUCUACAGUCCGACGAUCGCAGGAAGUAAAAACAAAUGGAAAUGCUUCGGAUAGUGGCAGGGGUGGGGGUUGCUAAGGAAAGUGUGGGAUGGGAGUGGGUAAAGAGUUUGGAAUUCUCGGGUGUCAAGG; value = 0.863
Sequence = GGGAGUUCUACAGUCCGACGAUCCCUCAAGUCCUGUGCUACACAUCGUAUGUACCGAAUCGGGGAGGGGAGGAGGGAAAGUAUUAUGUUACGCCGUUCGGAUCUGCACUUCCAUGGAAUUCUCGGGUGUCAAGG; value = 1.14
Sequence = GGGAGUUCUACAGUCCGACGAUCCCUGUGCUACACAUCGUAUGUACCGAAUCGGCCCCCCCGGGCCCCCCCGGCCCCCCCGGGAAAGUAUUAUGUUACGCCGUUCGGAUCUGCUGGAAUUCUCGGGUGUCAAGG; value = 0.0297
Sequence = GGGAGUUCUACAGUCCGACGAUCUCAAGUCCUGUGCUACACAUCGUAUGUACCGAAUCGGGUUGGGGUUGGGGUUGGGAAAGUAUUAUGUUACGCCGUUCGGAUCUGCACUUCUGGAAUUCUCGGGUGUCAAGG; value = 0.872
Sequence = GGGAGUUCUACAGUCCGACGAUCUUAGAAGAAUUUGGAAGGCCUUAAAUAUAGUAGCUUAGUUUGAAAAAUGUGAAGGACUUUCGUAACGGAAGUAAUUCAAGAUCAAGAGUAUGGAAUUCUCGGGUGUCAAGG; value = -2.33
Sequence = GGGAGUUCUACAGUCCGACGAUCUGGGAGGUGGAUUUUGUUUAUUUUUUUAGCUCAUUUCCACGGGUGGGAAUUUUUUUUUAAUAUGUGUCAUGAAUAAAGUUGUUUUUGAAAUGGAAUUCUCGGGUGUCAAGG; value = -0.177
Sequence = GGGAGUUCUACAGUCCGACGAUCUCAAGUCCUGUGCUACACAUCGUAUGUACCGAAUCGGUUUUUUUGGUUUGGUGGAAAGUAUUAUGUUACGCCGUUCGGAUCUGCACUUCCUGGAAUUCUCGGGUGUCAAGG; value = -0.904
Sequence = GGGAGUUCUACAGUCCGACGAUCCCUGUGCUACACAUCGUAUGUACCGAAUCAAACCCCCCCAAAUUUUUAAACCCCCCCAAAAAAGUAUUAUGUUACGCCGUUCGGAUCUGCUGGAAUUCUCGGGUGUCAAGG; value = 0.951

Sample 3 — method: universal PBM; form: double-stranded DNA, one strand shown; sample: in vitro; concentration: 600 nM; reading: higher = stronger binding; quantity: E-score
Target: Sal-like protein 4, full length isoform A (SALL4, Homo sapiens, UniProt Q9UJQ4, residues 1-1053)
Sequence of UniProt Q9UJQ4 (whole entry, looked up): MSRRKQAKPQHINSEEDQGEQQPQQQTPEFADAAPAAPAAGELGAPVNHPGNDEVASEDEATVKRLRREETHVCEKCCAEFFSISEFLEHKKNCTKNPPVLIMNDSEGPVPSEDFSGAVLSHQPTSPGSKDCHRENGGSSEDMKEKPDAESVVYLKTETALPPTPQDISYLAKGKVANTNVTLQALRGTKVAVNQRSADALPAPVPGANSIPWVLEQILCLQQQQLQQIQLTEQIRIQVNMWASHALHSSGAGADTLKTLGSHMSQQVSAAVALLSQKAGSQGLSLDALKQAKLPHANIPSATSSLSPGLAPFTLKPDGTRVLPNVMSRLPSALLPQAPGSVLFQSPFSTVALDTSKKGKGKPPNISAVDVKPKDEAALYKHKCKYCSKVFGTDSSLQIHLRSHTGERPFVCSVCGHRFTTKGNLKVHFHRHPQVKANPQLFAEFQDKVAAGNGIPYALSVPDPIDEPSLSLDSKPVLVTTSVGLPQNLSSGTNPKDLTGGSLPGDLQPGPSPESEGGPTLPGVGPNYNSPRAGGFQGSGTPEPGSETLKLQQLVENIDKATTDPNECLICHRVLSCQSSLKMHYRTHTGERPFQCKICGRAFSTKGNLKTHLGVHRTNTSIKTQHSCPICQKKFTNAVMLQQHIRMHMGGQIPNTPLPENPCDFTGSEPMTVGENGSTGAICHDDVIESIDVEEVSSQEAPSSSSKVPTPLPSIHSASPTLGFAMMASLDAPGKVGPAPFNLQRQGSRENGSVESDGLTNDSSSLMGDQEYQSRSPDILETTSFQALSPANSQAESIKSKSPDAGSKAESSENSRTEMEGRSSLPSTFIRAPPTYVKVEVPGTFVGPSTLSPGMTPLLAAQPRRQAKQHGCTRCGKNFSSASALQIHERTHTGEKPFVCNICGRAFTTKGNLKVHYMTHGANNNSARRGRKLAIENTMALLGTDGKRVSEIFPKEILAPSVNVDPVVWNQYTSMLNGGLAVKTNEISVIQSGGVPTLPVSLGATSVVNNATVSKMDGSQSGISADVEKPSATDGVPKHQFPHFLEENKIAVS
Setting: 8-mer, flanks averaged, mean of replicates
Sequence = ATTTATAG; value = 0.355
Sequence = CTAGAGCA; value = -0.202
Sequence = ACTTTAAC; value = 0.196
Sequence = AGCAAATA; value = 0.283
Sequence = AAACATTG; value = 0.171
Sequence = AACCTACA; value = 0.124
Sequence = ATGGCAAT; value = 0.103
Sequence = GATCTTAA; value = 0.0335

Sample 4 — observed: enzyme activity; mode: inhibitor; concentration: 20 µM; setting: hit confirmation, with DTT; quantity: inhibition
Target: Replicase polyprotein 1ab, main protease (rep, Severe acute respiratory syndrome coronavirus 2, UniProt P0DTD1)
SMILES = COC(=O)/C=C/c1cc(O)ccc1O; value = -54.6%
SMILES = CCN(CC)C(=S)S; value = 60.6%
SMILES = O=C(O)[C@H]1O[C@@H](Oc2cc3oc(-c4ccccc4)cc(=O)c3c(O)c2O)[C@H](O)[C@@H](O)[C@@H]1O; value = -10.9%
SMILES = CC[n+]1c(-c2ccccc2)c2cc(N)ccc2c2ccc(N)cc21; value = 30%

Sample 5 — observed: enzyme activity; mode: inhibitor; concentration: 20 µM; quantity: inhibition
Target: Replicase polyprotein 1ab, polymerase (rep, Severe acute respiratory syndrome coronavirus 2, UniProt P0DTD1)
Structure (SMILES) = NS(=O)(=O)c1cc(Cl)c(Cl)c(S(N)(=O)=O)c1; value = -1.32%
Structure (SMILES) = COC(=O)N[C@H](C(=O)N1CC2(CC2)C[C@H]1c1nc(-c2ccc3c(c2)C(F)(F)c2cc(-c4ccc5[nH]c([C@@H]6[C@H]7CC[C@H](C7)N6C(=O)[C@@H](NC(=O)OC)C(C)C)nc5c4)ccc2-3)c[nH]1)C(C)C; value = -3.86%
Structure (SMILES) = OCCN1C[C@H](O)[C@@H](O)[C@H](O)[C@H]1CO; value = -2.34%
Structure (SMILES) = CCCCNC(=O)NS(=O)(=O)c1ccc(C)cc1; value = 20.1%
Structure (SMILES) = CN(Cc1cnc2nc(N)nc(N)c2n1)c1ccc(C(=O)N[C@@H](CCC(=O)O)C(=O)O)cc1; value = 30%
Structure (SMILES) = O=C(Cc1ccc(-c2ccc(OCCN3CCOCC3)cc2)cn1)NCc1ccccc1; value = 0.82%
Structure (SMILES) = COc1ccc(C(=O)Nc2c(Cl)cncc2Cl)cc1OC1CCCC1; value = -6.41%
Structure (SMILES) = Cc1cc(Nc2ncnc3ccc(NC4=NC(C)(C)CO4)cc23)ccc1Oc1ccn2ncnc2c1; value = 2.19%
Structure (SMILES) = Cc1c(C(=O)NC2CCCCC2)sc2nc3ccc(N)cc3n12; value = -6.79%
Structure (SMILES) = CCn1cnc2c(Nc3cccc(Cl)c3)nc(N[C@@H]3CCCC[C@@H]3N)nc21; value = 3.94%
Structure (SMILES) = Cc1ccc(Cl)c(OCC(O)CNC(C)C)c1 (stereo not drawn); value = 1.51%
Structure (SMILES) = CC(C)c1cc(CNc2nc(Nc3cc(C4CC4)[nH]n3)cc(N3CCN(C)CC3)n2)on1; value = -4.96%
Structure (SMILES) = BrC1C(Br)C(Br)C(Br)C(Br)C1Br (stereo not drawn); value = 2.84%
Structure (SMILES) = CC(C)C(=O)OCC(=O)[C@@]12O[C@H](C3CCCCC3)O[C@@H]1C[C@H]1[C@@H]3CCC4=CC(=O)C=C[C@]4(C)[C@H]3[C@@H](O)C[C@@]12C; value = 3.03%
Structure (SMILES) = O=C(NC1CCC1)c1ccc(C#Cc2cccc(F)c2)nc1; value = 1.67%
Structure (SMILES) = CCOCc1cc(OC)c(-c2ccc(C[C@H](NC(=O)c3c(F)cccc3F)C(=O)O)cc2)c(OC)c1; value = -0.27%
Structure (SMILES) = C=CC(=O)Nc1cccc(Oc2nc(Nc3ccc(N4CCN(C)CC4)cc3OC)ncc2Cl)c1; value = 0.89%
Structure (SMILES) = NC1=NCCN1CC(=O)O; value = -1.41%
Structure (SMILES) = O=C1N=C(NCc2cccs2)S/C1=C\c1ccc2ncccc2c1; value = -0.11%
Structure (SMILES) = COc1ccc(-c2csc(NC(=O)[C@H]3CCCCN3S(=O)(=O)c3ccc(C)cc3)n2)cc1; value = 0.53%
Structure (SMILES) = S=c1[nH]cnc2nc[nH]c12; value = 27.7%
Structure (SMILES) = O=C(OCCO)c1ccccc1O; value = -10.1%
Structure (SMILES) = c1ccc(C2CNCc3ccccc32)cc1 (stereo not drawn); value = -14.3%
Structure (SMILES) = c1cnc(NCc2ccc(CNc3ncccn3)cc2)nc1; value = -1.42%
Structure (SMILES) = N=C(N)NCCC[C@@H](NC(=O)[C@@H]1CCCN1C(=O)[C@@H]1CSSCCC(=O)N[C@@H](Cc2ccc(O)cc2)C(=O)N[C@@H](Cc2ccccc2)C(=O)N[C@@H](CCC(N)=O)C(=O)N[C@@H](CC(N)=O)C(=O)N1)C(=O)NCC(N)=O; value = 6.93%

Sample 6 — cell line: HEK-293T/ACE2; concentration: concentration not given; time: 16 (unit not given); reference: vehicle; quantity: viability
SMILES = Cc1ccnc2c1NC(=O)c1cccnc1N2C1CC1; value = 102%
SMILES = C#C[C@]1(O)CC[C@H]2[C@@H]3CCC4=CC(=O)CC[C@@H]4[C@H]3CC[C@@]21CC; value = 103%
SMILES = CC1=CC(=O)c2ccccc2C1=O; value = 96.3%
SMILES = CN(C)CCC[C@@]1(c2ccc(F)cc2)OCc2cc(C#N)ccc21; value = 109%
